Assay results gathered from unrelated publications.
Each line is one published result; not all experiments were run side by side. Numbers after ± are the reported error.
Organism: HIV-1

Cc1cc(C=C2C(=O)C=CC2=O)cc(C)c1O has an EC50 of 15200 nM (cytopathic effect; C8166, IIIB; 3 d).
For COc1ccc(S(=O)(=O)NCCNC(=O)c2[nH]c3ccc(Cl)cc3c2S(=O)(=O)c2cc(C)cc(C)c2)cc1, the EC50 was 85 ± 43 nM (viral replication; MT-4, IIIB).
With COc1cc2nc(NCc3ccc(CNCCCNC4CCCCC4)cc3)nc(NC3CCNCC3)c2cc1OC the EC50 was 21.7 ± 3 nM (viral replication, luciferase reporter; TZM-bl, IIIB).
Cc1cc(C)cc(S(=O)(=O)c2c(C(=O)NCCCCNS(=O)(=O)c3ccc([N+](=O)[O-])cc3)[nH]c3ccc(Cl)cc23)c1 has an EC50 of 28 ± 4.9 nM (viral replication; MT-4, IIIB).
For c1cc(CNCCCNC2CCCCC2)cc(CNc2nc(N3CCNCC3)nc3[nH]cnc23)c1, the EC50 was roughly 0.5 nM (viral replication, luciferase reporter; TZM-bl, IIIB).
The EC50 of Nc1ncnc2c1ncn2[C@@H]1O[C@H](CO)[C@@H](O)[C@@H]1O is reported as greater than 100000 nM (viral replication, item: reverse transcriptase activity; human PBM cells, LAI; 144 h).
With Cc1ccc(S(=O)(=O)NCCCCCNC(=O)c2[nH]c3ccc(Cl)cc3c2S(=O)(=O)c2cc(C)cc(C)c2)cc1 the EC50 was 27 ± 5 nM (viral replication; MT-4, IIIB).
With COc1nc(NCCNc2nc(Nc3ccc(C#N)c(OCC=C(C)C)c3)nc(OC)n2)nc(Nc2ccc(C#N)c(OCC=C(C)C)c2)n1 the EC50 was greater than 6000 nM (protection from viral cytopathicity, MTT; MT-2, IIIB).
For COc1cc2nc(NCc3ccc(CNCCCN4CCCCC4)cc3)nc(NC3CCNCC3)c2cc1OC, the EC50 was 26.2 ± 4.4 nM (viral replication, luciferase reporter; TZM-bl, IIIB).
The EC50 of O=C(O)Cn1c(=O)ccn(CCCCCCOc2ccc(Br)cc2)c1=O is reported as greater than 100000 nM (viral replication, item: p24gag; MT4, Lai.04; 3 days).
For Cc1ccc(S(=O)(=O)NCCCCNC(=O)c2[nH]c3ccc(Cl)cc3c2S(=O)(=O)c2cc(C)cc(C)c2)cc1, the EC50 was 32 ± 12 nM (viral replication; MT-4, IIIB).
O=C(O)c1ccccc1-n1c(-c2ccccc2)nc2ccccc2c1=O has an EC50 of greater than 125 µg/mL (cytopathic effect; MT-4, IIIB; 5 days).
Cc1cc(C)cc(S(=O)(=O)c2c(C(=O)NCCCCCNS(=O)(=O)c3ccc(Br)cc3)[nH]c3ccc(Cl)cc23)c1 has an EC50 of 75 ± 30 nM (viral replication; MT-4, IIIB).
For NC12CC3CC(CC(C3)C1)C2, the EC50 was 94000 nM (viral replication; PBMC).
The EC50 of C=C(C)[C@H]1CCc2c(c(C)cc(O)c(=O)c2O)C1 is reported as greater than 50000 nM (cytopathic effect; CEM-SS, RF).
COc1cc(NC(C)CCCN)c2ncccc2c1 (stereo not shown) gave an EC50 of greater than 100000 nM (cytopathic effect; MT4, NL4.3; 5 days).
Cc1cc(C)cc(S(=O)(=O)c2c(C(=O)NCCCCCNS(=O)(=O)c3cccnc3)[nH]c3ccc(Cl)cc23)c1 has an EC50 of 7.6 ± 2.7 nM (viral replication; MT-4, IIIB).
Cc1cn(CC(=O)N[C@@H](Cc2ccccc2)C(=O)N(C)c2ccc(Cl)cc2)c(=O)[nH]c1=O gave an EC50 of 1700 ± 200 nM (viral replication; TZM-GFP, NL4-3).
With Nc1ccn([C@@H]2CS[C@H](COC(=O)Cn3c(=O)ccn(CCCCCCOc4ccc(Br)cc4)c3=O)O2)c(=O)n1 the EC50 was 2000 nM (viral replication, item: p24gag; MT4, Lai.04; 3 days).

For quick reference, copied from above:
With Nc1ccn([C@@H]2CS[C@H](COC(=O)Cn3c(=O)ccn(CCCCCCOc4ccc(Br)cc4)c3=O)O2)c(=O)n1 the EC50 was 2000 nM (viral replication, item: p24gag; MT4, Lai.04; 3 days).
COc1cc(NC(C)CCCN)c2ncccc2c1 (stereo not shown) gave an EC50 of greater than 100000 nM (cytopathic effect; MT4, NL4.3; 5 days).
For COc1cc2nc(NCc3ccc(CNCCCN4CCCCC4)cc3)nc(NC3CCNCC3)c2cc1OC, the EC50 was 26.2 ± 4.4 nM (viral replication, luciferase reporter; TZM-bl, IIIB).
